# Experimental data collected from several papers.
# Parts stem from different laboratories: compare values within a part only. Positions count from the first letter of the parent shown.

# Study 1
# Target: CCND1, cyclin fold, Cln2 fusion (human)
# Technique: yeast growth competition, sequencing
# Sample: yeast
# Notes: weak parent motif
# Baseline: not given
# Direction: higher = stronger binding
# Parent: ORC1 docking peptide (human); PRARKRLELGNLG; partner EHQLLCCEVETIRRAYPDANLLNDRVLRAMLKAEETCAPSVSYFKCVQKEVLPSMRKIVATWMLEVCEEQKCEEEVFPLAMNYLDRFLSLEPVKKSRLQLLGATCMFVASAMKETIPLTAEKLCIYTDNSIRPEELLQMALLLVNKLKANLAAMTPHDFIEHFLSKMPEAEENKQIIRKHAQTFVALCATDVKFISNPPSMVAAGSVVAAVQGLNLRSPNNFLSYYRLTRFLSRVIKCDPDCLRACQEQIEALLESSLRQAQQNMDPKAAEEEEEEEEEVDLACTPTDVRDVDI
Substitution,normalised enrichment score
PRARARAELGNLG [K5A L7A],-0.119
IRARKRLELGNLG [P1I],-0.0821
PRARKMLELGNLG [R6M],0.336
PRARKRLELGNLM [G13M],0.752
PRARKRLELKNLG [G10K],-0.267
PRARKRLELGNLE [G13E],0.0362
PYARKRLELGNLG [R2Y],-0.353
PRARERLELGNLG [K5E],-0.0156
PRARKRLEDGNLG [L9D],-0.0966
PRARKRLELGNAG [L12A],0.172
PRYRKRLELGNLG [A3Y],0.27
PRQRKRLELGNLG [A3Q],0.613
PSARKRLELGNLG [R2S],-0.327
PRTRKRLELGNLG [A3T],0.317
PRARKRLELGNIG [L12I],-0.409
TRARKRLELGNLG [P1T],0.185
PRCRKRLELGNLG [A3C],0.248
PRVRKRLELGNLG [A3V],-0.421
YRARKRLELGNLG [P1Y],0.0448
PRARKRLELGNVG [L12V],-0.365
PRARKRLELGNLS [G13S],0.401

# Study 2
# Target: Interferon regulatory factor 7, full length, phosphomimetic (IRF7, Homo sapiens, UniProt Q92985, residues 1-503, S471D/S472D/S475D/S476D/S477D/S483D/S484D/S487D)
# Chain of UniProt Q92985 (whole entry, unmodified, looked up): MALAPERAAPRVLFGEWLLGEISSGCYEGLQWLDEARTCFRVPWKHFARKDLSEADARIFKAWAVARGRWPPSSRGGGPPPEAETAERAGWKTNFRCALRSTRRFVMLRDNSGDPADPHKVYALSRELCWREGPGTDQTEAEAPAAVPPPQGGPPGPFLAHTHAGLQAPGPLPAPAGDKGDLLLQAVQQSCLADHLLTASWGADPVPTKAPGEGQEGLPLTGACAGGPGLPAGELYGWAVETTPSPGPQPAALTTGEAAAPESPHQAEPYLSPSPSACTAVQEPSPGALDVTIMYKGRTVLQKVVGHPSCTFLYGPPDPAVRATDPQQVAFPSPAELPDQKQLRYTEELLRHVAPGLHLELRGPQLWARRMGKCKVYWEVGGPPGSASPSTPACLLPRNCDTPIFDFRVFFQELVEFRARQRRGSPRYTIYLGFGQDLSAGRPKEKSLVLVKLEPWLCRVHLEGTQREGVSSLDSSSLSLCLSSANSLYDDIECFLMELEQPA
# Technique: protein-binding microarray
# Molecule type: double-stranded DNA, one strand shown
# Sample: in vitro
# Tested at: 2200 nM top
# Notes: 60-bp whole probe
# Added: salmon DNA 0.4 mg/ml
# Baseline: random background probes
# Direction: higher = stronger binding
# Constant ends, left off below: GCCTAGCAC … GTCTTGATTCGCTTGACGCTGCTG
Oligonucleotide,fitted relative affinity [z-score]
GACTATCTCAGACTGGAGACGTGCTAG,0.113
TCAGGCTTCATGTTGCTCACTGTGCTA,0.76
TTAGGTTTCCTACTGCTTTTGTGCTAG,1.39
GACGAACTGGGCACTGGAGACGTGCTA,-0.342
TTAGAACTGGGGTATCGCTTAGTGCTA,0.0421
TTAGGTTTCGGTTCCGGTCAGTGCTAG,11.1
TTTGATATCGGGTTTCGATTAGTGCTA,3.13
TTAGGTCTCCTTTTCCTATAGTGCTAG,1.62
TTAGGTATCGGGCTCGGTTAGTGCTAG,0.148
GACGGACTGGGGTATCGGAACGTGCTA,-0.773
TTGTATCTGGGTTCCCCCCCGTGCTAG,0.171
TCATGTTTGAGTCTTCTACTGTGCTAG,1.21
TTAGGGCTCGGTATCGGTTAGTGCTAG,-0.288
TCAAGGCCAGGGTTTCTGTTGTGCTAG,-0.0593
GAAGCTTCTTTTTTATTCTAGTGCTAG,0.562
GACAGTATCCTACTGCTGACGTGCTAG,0.678
TCATTACTAAAATTTCATACTGTGCTA,0.373
TTAGATATCGGGGATCGATTAGTGCTA,-0.0826
TTAGGTCTCCTTTTCCTTGAGTGCTAG,1.33
GACGGCTTCGGTCTCGGGACGTGCTAG,-0.22
GACGGTTTCTTTTCCCTGACGTGCTAG,3.82
TCATAACTCATTTTCATACTGTGCTAG,1.79
AGTATGTTCACTATTTAAGAGTGCTAG,0.478
TTTCTGATCCATTTTGGTTTGTGCTAG,5.46
TTAGATATCAGTTACGATTAGTGCTAG,0.427

# Study 3
# Target: RING finger protein unkempt homolog, zinc fingers 1-6, GST-SBP tag (UNK, Homo sapiens, UniProt Q9C0B0, residues 30-357)
# Technique: RNA Bind-n-Seq
# Molecule type: RNA
# Sample: in vitro
# Tested at: not given
# Notes: RNA with constant flanks, human and mouse sites, ends assumed
# Baseline: input RNA pool
# Direction: higher = stronger binding
# Constant ends, left off below: GGGAGUUCUACAGUCCGACGAUC … CAACAGAGGAUUGAGCAUCA
# Construct (chain): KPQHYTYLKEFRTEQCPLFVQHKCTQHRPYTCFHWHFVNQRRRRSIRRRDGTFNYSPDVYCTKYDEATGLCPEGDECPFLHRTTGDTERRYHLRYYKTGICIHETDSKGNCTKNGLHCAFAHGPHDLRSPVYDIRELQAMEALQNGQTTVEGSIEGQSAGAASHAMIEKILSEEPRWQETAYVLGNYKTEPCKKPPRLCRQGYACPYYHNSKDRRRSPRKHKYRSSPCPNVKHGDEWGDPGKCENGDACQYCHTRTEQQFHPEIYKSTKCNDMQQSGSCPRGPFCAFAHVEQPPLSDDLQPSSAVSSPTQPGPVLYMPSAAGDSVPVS
Oligonucleotide,bound/input enrichment [ratio]
GACCCCCAGGUUAUGGAAGACAAAUCCGACCGCCCUGUCUGCCGACAUUUUGCCAAAAAGGGCCACUGUCGAUAUGAGGACCUCUGUGCCUUCUACCAUCCAGGCGUCAAUGGACCUCCU,0.112
GUAUAUAUUUCCAGGCUGCAUCUUCAGCCUGAUAUGUACUUUGUAGUUGCAACAGCGCCCUAGGUGCCCUAUGGCCCACCAAGUUUGAGGAGGGUGGUGCUUUCCGGAUUGAGCCUGGGC,0.207
UCUCCCGUGUUACCAAUGUGUAUGGUCUCCUUCUCCCGAAAGUGUACUUAAUCUUUGCUUUCUUUGCACAAUGUCUUUGGUUGCAAGUCAUAAGCCUGAGGCAAAUAAAAUUCCAGUAAU,0.395
AAGAUUUGGAGAGGAUGUGCUUGAAGUAAUCAAGGACUCUAAUCCUGUAGACAAGUGCAAAUUAGAUCCAAACAAGGCAUAUAUUCAGAUUACCUACGUGGAGCCCUUCUUUGACACCUA,0.332
AAUCUCAGAGGCAGUGGUGUCCAUGGUGGGCUCAUGGUUCUAGAGCCUCGUUUUAACGUAGAAACAAUGGCUCAGUUAUUGAACAUCCCACCCAAUAAGACUUUGCUGCGAAGACAUUUG,0.0996
UCUUUUUCCUGGACUACAGACUGCAAUCCCCGUAGGGAGUGGCAUUGCUCACAUAGACAUUAGUAUUUUACUGAGGGUAUCAGCACCAUGGCCACUGAAGACCAGACAUAGGGUUGGGAA,4.63
AUUCUUUACAACUUGGUCUUGAGAAAUCUUGAAGAAAGAAAUUAUACAGAAUAUAAACCUUUGUGCCCAGAAGAUAAAGAUGUGGUAGAAAAUGGAUUGAUAGCAGGAGCAGUAGAUCUG,0.566
UACACUGAUGUCUAUCCAGAAAUCAUUGAGCGCGCAUGCUUUGUCCUGGAGAAGAAAUUUGGAAUCCAGCUGAAGGAAAUCGACAAAGAAGAGCAUCUGUAUAUUCUCAUCAGUACCCCU,0.138
GUGGAGAACCAGAGUCUGCGUGGCGUGGUACAGGAGCUGCAGCAGGCCAUCUCCAAGCUGGAGGCCCGGCUGAACGUGCUGGAGAAGAGCUCGCCUGGCCACCGGGCCACGGCCCCACAG,0.101
GGGUAUUUCACAAAGCCUCCACUUGUAGCUCACGCUUCAAGGUCAGCAGAAUCAAAGGUUAUAGAAUUUGGAAAAUCCAAUUUCGUUCAGCCCAUGCAGGGUGAAGUAAUAAGGCCACCC,0.127
UCUGAGAAUUACAAACAGAAGAUAGAAAGAAGUCUUAAAGCUGGUACAGUUAAAGAAUGUAUUAGUCUCAGAAGCUGUGUAUGUUUAUGUGAUAGAAUCUAAAUAAAAUACAGACAUCUA,0.264

# Study 4
# Target: RNA binding protein fox-1 homolog 2, RRM domain, GST-SBP tag (RBFOX2, Homo sapiens, UniProt O43251-10, residues 100-194)
# Technique: RNA Bind-n-Seq
# Molecule type: RNA
# Sample: in vitro
# Tested at: 365 nM
# Notes: natural RNA segment, single round, ends assumed
# Baseline: no-protein control
# Direction: higher = stronger binding
# Constant ends, left off below: GGGAGUUCUACAGUCCGACGAUC … UGGAAUUCUCGGGUGCCAA
# Target sequence (chain): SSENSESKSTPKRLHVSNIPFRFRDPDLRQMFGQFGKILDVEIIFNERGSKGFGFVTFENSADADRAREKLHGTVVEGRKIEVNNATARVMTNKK
Oligonucleotide,RBNS enrichment (R)
UAUAUGGCUUUAUGUAGUAAUAGUUUUCUGACUAAAAUUUUGUUUUUUAUUUUUUGUAAUUUAUCUUUAACUCCUUUUGCAUUUUGUAUAACAGAUUGCUUAACUUCUAC,2.53
ACACAGGCCUCCUGUAGUCAUAGCAACAGAGAUGACCUAGGUGCACCCACCUUAGGUGGAGGACUUCCCCAUGCACACCACCACCCCUCUUAGAGCACAGGCUAAGGGCC,0.451
CUUUUCAUUCUCCUCCUCCUCCCUCCUCACUCCCUAGGCCCAAGUCUCCUAGGGGCUUGGUCCUAGGGUGGGAAGGGGCUAGGGAGGACCAAAGGGAUGGUAUUGAGAAG,0.181
GAAUGUGGGGCUCUGAGAUAAAGGCCCGCAGACAGGGACAAGGGAUGCCCUACCCUUAACCUAGGCUGGACACAUUUGCUGCCUUCUCCUCAAGGAAGAAGAACCCAAGC,0.351
CCAUGCCCACUGCUGGUGCCAGGGUGGGUGUCCAUGUGCACCCGGCCUGGAUGCCAGCUGUGUCCUUCGGGGGCGUGCGUGUAACUGUAGUGUAGUCAGGUGCUCAAUGG,0.391
ACGUCCGGCACGUAACUGAUCGGAGCAUUCUGGGAAGAAGUAAUUUAUUCCUUUUCGGCAGCCGAAUAAAAAAAAAUUUAAAAAAAUGUGCGAGCUAAUAUGGCAAAACA,0.774
AAGUGGGGCAGGUUUGGUGGCUUCUGCCUGUAAUCACUGCAUUCAGAGGGGGCCAAGGCCUGUUUCAAAAACAACAACCAAGACAAGCAAAACCAGGUGUUGCUUUGCUA,0.339
ACCCCGUGCCGUGUAGACACUCAUCUUCUGCAUGACAUGAUCUACCAUUCGGUGUAAACAUUUGUGUUUAUAAGAUUUACUUUGUUUUUAUUUUUCUACUUGGAACUGUA,3.47
AAAACAUGCUUAAAGGAGUAACUAGGAGGGUAAAGCAGUUACAGCUUAGUGAUACAAAUACAUUUCUCUGUAGACUUCCUUAAGGAAAGACGUGAGUAGAGCUAGGUUGG,0.313
UCAGAAUAUGUCUUGUACUUCUAUGGUUAAAAUUAGUACUGCUUUCUCUCGUGAAUGGAGCUGUUUUCUUCAGAGCCUUUGCUCUGAAACAUCACGCUCCCCUGUAUGGG,0.33
ACAUUAACUGCUCAAAUACAAGGAAGUGGCCCAAUGAACAUGGUUGUGGGAGGGGAAAGGAGAAACAAAGCUAGUCAGAUGUGAAUUGUAUCUGUUGUAAUAAACAUGUU,1.81
AGUUUCAAUAAAGUUUGAUCUUCCUCUGCUAAAUUGAUGUUGAUGCAAUCCUUACAAAUGAUUGCUUUUAAAAUUUUAAGCUAGGAAAAGAAAUCUAUAGAAAGUGUUCU,0.481

# Some of these lines once more (study 2):
Oligonucleotide,fitted relative affinity [z-score]
TTAGAACTGGGGTATCGCTTAGTGCTA,0.0421
TCAGGCTTCATGTTGCTCACTGTGCTA,0.76
GACGGTTTCTTTTCCCTGACGTGCTAG,3.82
TCAAGGCCAGGGTTTCTGTTGTGCTAG,-0.0593
TTTCTGATCCATTTTGGTTTGTGCTAG,5.46
GAAGCTTCTTTTTTATTCTAGTGCTAG,0.562
GACGGCTTCGGTCTCGGGACGTGCTAG,-0.22
